Assay results from different studies.
Parts stem from different laboratories: compare values within a part only. Substitutions count along the parent as printed.

Sample 1
Target: Interferon regulatory factor 5, full length, phosphomimetic (IRF5, Homo sapiens, UniProt Q13568-2, residues 1-514, K96S/S451D/S453D/S456D/S462D)
Technique: protein-binding microarray
Form: double-stranded DNA, one strand shown
Medium: in vitro
Concentration: 250 nM
Setting: 60-bp whole probe
Together with: salmon DNA 0.4 mg/ml
Baseline: random background probes
Reading: higher = stronger binding
Endpoint: log fluorescence
Shared flanks, not repeated: GCCTAGCAC … GTCTTGATTCGCTTGACGCTGCTG
CTAACTTTCCAATTGTCCTTGTGCTAG: 1.09 z-score
AAGTTTCTCCTTTCGGAATAGTGCTAG: 7.35 z-score
GACGGTTTAGACTTTCGGGACGTGCTA: 4.21 z-score
TTAGAACTGCTACTGCTTTAGTGCTAG: -0.108 z-score
GACGGTTTCGGGACTGGGGATGTGCTA: 4.72 z-score
GACGGACTGGGGTATCAGGACGTGCTA: -0.393 z-score
GACGGTTCCGGTTTCGGGAAGTGCTAG: 5.26 z-score
TCTCTTTCCAACTCTGTTTTCGTGCTA: 1.92 z-score

Sample 2
Target: RNA binding protein fox-1 homolog 2, RRM domain, GST-SBP tag (RBFOX2, Homo sapiens, UniProt O43251-10, residues 100-194)
Technique: RNA Bind-n-Seq
Form: RNA
Medium: in vitro
Concentration: 365 nM
Setting: natural RNA segment, single round, ends assumed
Baseline: no-protein control
Reading: higher = stronger binding
Endpoint: RBNS enrichment (R)
Residues (chain): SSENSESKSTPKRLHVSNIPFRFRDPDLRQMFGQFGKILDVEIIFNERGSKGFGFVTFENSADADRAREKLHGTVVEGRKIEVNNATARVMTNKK
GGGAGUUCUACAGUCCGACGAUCAUUAGUACAUCAUUUUCUCUGGAUUUUCUUCACUUCCCUCUUCCUUUCUACUAACUCCUUCCUUAAAGGCCAUAUCACUCCAUUUGCAUUAUUUGUGCAAAUGCCAGGGUUGGAAUUCUCGGGUGCCAA: 0.541
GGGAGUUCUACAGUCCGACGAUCUUUUUACGCAGCCAUACACUUACUUUAAUCUAACUCAUUCUGUGGCUAGGAUUGAUAUAGGAAUCAACCUAUGUGAUUUGCUUUAGGAGAAAUUAAAAGGUAUAUUCUUAUGGAAUUCUCGGGUGCCAA: 0.637
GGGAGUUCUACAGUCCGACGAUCAAAUGGUUAAUAUUGGUCCCAACAGGGCUGACUCUUCUAUCAUAUAAUCAAAACUUUUUACAUGAGCAAAAUUCAGUAAGAAAUGGGGGAAGACAAAGGAAACGUCUUUGUGGAAUUCUCGGGUGCCAA: 0.495
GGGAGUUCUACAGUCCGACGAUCGCCAGAAGCAUAAAAUGUGAUGAAGGUUUCUCCUGGGAACCUUAUUUUACUCUUCAUUUCAGGGUUUUCUUUUUUUUUUUACCUUCAAAGGUAGACAUUUUGGGAAUCAUUGGAAUUCUCGGGUGCCAA: 0.846
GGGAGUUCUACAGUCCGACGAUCGGGUAUCGGGGUGCGAGGUCUGUCUGCACCGGCCCCCACAUCUAACCAGGCCCUGAUGUAGGGGUCGUCCGCUCAGGCUGCCCCCUUGGGCUCUUGCAGCUCUUGUUCAGUGGAAUUCUCGGGUGCCAA: 0.301
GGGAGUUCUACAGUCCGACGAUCAUUAAUUGCUAGUACUUGUUUUUUAAACAACACUUUGUAGCAUGGGAACAACCCUCCCCCUUUCCAUUCAUAAGUCCAAAUGUAAAUAAACGUAUGCAGAAUGUUAGCGUUGGAAUUCUCGGGUGCCAA: 1.92
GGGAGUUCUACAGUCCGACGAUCAAUUGUUAUAAUUAGAGUUGUGAUACAGAGUAUAUUUCCAUUCAGACAAUAUAUCAUAACUUAAUAAAUAUUGUAUUUUAGAUAUAUUCUCUAAUAAAAUUCAGAAUUCUUGGAAUUCUCGGGUGCCAA: 0.795
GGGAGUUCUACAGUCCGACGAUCUUAAAUGAAUUUUUAAGGCUGAAAUCUGUGGGUAAGAUGGAGUCUGGAGCUUUCCUCUUGGAACAGUUAACCGAAGACCCUCAUGGGCAAGGACAUCCGCUUGACUCCCCUGGAAUUCUCGGGUGCCAA: 0.203

Sample 3
Target: Sal-like protein 4, full length isoform B (SALL4, Homo sapiens, UniProt Q9UJQ4-2, residues 1-616)
Technique: universal PBM
Form: double-stranded DNA, one strand shown
Medium: in vitro
Concentration: not given
Setting: 8-mer, flanks averaged, mean of replicates
Reading: higher = stronger binding
Endpoint: E-score
Target sequence (chain): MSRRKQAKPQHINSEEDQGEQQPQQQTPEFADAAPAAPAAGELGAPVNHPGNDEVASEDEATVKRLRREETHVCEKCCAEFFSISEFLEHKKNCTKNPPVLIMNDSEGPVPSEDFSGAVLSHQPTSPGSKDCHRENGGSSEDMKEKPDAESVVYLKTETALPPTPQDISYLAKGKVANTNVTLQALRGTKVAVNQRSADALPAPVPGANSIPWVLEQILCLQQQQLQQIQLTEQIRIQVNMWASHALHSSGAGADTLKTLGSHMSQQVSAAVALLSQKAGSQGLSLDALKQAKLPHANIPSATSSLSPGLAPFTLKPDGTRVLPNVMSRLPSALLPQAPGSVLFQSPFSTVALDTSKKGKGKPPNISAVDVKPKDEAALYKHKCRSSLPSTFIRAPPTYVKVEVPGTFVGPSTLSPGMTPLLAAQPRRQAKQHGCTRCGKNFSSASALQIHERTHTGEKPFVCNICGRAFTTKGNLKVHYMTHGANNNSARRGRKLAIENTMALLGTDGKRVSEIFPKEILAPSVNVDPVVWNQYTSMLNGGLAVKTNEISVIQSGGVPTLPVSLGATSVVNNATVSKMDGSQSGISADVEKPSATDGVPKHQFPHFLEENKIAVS
ATCAGCGG: -0.264
GCTCAGCC: -0.286
GGTTCATA: 0.281
AAAGCCCA: -0.107
TATAAAGA: 0.278
CTACCTGC: -0.108
CATATCGA: 0.0338
GATAGTCA: 0.0785

Sample 4
Target: CCNA1, cyclin fold, Cln2 fusion (human)
Technique: yeast growth competition, sequencing
Medium: yeast
Setting: weak parent motif
Baseline: not given
Reading: higher = stronger binding
Endpoint: normalised enrichment score
Starting sequence: viral docking peptide; PTARRRLLHDLDT
R5K: 0.423
T13A: 0.42
R4A: -0.0426
L8A: -0.0807
R5A: 0.376
D10A: 0.131
T2A: 0.162
R5K L8F: 1.22

For quick reference, copied from above (sample 2):
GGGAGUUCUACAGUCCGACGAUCGGGUAUCGGGGUGCGAGGUCUGUCUGCACCGGCCCCCACAUCUAACCAGGCCCUGAUGUAGGGGUCGUCCGCUCAGGCUGCCCCCUUGGGCUCUUGCAGCUCUUGUUCAGUGGAAUUCUCGGGUGCCAA: 0.301
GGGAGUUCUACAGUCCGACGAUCAUUAAUUGCUAGUACUUGUUUUUUAAACAACACUUUGUAGCAUGGGAACAACCCUCCCCCUUUCCAUUCAUAAGUCCAAAUGUAAAUAAACGUAUGCAGAAUGUUAGCGUUGGAAUUCUCGGGUGCCAA: 1.92
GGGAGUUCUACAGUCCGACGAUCAUUAGUACAUCAUUUUCUCUGGAUUUUCUUCACUUCCCUCUUCCUUUCUACUAACUCCUUCCUUAAAGGCCAUAUCACUCCAUUUGCAUUAUUUGUGCAAAUGCCAGGGUUGGAAUUCUCGGGUGCCAA: 0.541
